Assay results collected from several papers.
Protocols differ between the studies behind these lines. “And” joins repeats or separate records; there may be more than shown. Numbers after ± are the reported error.
FABP1: Fatty acid-binding protein, liver (FABP1, Homo sapiens, UniProt P07148)
Chain of UniProt P07148 (whole entry, looked up): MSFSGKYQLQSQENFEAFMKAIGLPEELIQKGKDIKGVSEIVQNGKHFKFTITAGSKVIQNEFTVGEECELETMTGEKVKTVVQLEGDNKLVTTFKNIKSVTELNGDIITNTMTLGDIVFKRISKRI
Acetyl-CoA synthetase: Acetyl-CoA synthetase (Cryptococcus neoformans, UniProt J9VFT1)
Chain of UniProt Q9JLB5 (whole entry, looked up): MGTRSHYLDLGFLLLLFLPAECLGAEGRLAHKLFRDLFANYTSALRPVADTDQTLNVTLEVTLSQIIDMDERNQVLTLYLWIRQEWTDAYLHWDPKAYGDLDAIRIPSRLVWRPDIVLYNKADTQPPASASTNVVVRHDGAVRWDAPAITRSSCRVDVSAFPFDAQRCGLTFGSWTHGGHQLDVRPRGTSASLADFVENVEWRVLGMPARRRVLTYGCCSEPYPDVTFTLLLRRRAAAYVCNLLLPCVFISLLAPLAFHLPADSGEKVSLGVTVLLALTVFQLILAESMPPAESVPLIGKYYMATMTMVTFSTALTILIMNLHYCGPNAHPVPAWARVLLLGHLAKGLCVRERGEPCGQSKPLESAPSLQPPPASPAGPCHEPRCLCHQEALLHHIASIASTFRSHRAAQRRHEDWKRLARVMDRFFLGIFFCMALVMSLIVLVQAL
Chain of UniProt Q8TBX8 (whole entry, looked up): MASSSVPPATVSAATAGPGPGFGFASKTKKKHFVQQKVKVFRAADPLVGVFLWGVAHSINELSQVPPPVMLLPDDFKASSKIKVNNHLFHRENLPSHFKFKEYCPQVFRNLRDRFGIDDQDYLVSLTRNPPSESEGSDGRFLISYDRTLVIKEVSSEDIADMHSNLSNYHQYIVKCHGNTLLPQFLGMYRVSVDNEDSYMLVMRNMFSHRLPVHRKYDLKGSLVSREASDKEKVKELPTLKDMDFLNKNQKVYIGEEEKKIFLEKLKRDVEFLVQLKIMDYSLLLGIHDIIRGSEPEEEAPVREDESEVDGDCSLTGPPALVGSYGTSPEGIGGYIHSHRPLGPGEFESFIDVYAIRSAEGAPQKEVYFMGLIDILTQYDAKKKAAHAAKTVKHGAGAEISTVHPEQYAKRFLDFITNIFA
Chain of UniProt P43144 (whole entry, looked up): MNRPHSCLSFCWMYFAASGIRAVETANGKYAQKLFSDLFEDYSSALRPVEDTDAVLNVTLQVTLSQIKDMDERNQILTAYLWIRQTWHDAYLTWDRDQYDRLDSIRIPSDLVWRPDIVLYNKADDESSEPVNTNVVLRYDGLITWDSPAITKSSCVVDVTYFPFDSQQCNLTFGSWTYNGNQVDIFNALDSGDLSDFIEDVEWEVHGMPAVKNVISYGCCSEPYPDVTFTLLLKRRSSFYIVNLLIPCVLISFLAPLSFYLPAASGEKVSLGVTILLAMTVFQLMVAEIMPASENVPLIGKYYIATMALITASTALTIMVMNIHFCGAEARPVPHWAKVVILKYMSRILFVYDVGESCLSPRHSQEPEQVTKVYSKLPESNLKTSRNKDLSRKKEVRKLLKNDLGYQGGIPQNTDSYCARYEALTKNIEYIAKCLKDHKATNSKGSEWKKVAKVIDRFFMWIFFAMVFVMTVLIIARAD
Chain of UniProt P50613 (whole entry, looked up): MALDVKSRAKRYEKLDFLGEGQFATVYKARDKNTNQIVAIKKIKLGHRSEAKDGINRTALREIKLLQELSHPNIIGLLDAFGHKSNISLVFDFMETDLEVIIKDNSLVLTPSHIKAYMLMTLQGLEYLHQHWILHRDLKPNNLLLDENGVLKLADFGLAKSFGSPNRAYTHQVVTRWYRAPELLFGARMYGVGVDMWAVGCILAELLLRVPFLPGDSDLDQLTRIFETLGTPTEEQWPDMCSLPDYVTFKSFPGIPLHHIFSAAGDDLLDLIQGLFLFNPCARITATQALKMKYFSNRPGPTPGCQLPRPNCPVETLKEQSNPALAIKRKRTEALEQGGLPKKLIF
Chain of UniProt O00222 (whole entry, looked up): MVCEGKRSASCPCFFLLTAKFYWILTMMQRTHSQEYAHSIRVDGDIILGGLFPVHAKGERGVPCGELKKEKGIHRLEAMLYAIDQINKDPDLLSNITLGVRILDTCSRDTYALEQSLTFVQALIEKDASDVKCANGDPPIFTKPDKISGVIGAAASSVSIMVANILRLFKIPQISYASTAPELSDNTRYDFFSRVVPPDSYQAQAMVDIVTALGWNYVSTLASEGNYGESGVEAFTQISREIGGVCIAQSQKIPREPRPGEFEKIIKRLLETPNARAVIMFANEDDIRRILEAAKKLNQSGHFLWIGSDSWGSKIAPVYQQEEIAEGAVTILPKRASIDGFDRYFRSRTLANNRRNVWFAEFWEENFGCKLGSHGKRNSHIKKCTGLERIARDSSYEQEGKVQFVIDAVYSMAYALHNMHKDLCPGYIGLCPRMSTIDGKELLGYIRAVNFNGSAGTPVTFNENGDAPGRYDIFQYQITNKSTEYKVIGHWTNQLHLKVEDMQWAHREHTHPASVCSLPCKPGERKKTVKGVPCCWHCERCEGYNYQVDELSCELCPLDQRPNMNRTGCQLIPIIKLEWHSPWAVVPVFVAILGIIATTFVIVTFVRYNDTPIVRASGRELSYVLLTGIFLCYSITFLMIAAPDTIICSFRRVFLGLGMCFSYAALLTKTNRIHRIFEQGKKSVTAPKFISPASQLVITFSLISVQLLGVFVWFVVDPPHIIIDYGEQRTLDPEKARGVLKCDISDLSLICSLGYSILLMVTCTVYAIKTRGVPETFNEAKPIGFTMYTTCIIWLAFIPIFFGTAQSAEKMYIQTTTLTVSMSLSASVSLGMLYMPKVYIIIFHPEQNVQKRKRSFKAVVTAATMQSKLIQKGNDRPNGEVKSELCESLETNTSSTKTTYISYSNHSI
Chain of UniProt P46109 (whole entry, looked up): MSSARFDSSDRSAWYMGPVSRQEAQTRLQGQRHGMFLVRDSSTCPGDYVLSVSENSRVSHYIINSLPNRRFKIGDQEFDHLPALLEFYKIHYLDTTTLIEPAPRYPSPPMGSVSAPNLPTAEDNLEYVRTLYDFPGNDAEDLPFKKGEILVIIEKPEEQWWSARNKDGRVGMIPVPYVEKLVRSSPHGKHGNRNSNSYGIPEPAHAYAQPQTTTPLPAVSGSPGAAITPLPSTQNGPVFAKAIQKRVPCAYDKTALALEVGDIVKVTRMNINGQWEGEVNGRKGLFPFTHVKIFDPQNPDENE
Chain of UniProt P08510 (whole entry, unmodified, looked up): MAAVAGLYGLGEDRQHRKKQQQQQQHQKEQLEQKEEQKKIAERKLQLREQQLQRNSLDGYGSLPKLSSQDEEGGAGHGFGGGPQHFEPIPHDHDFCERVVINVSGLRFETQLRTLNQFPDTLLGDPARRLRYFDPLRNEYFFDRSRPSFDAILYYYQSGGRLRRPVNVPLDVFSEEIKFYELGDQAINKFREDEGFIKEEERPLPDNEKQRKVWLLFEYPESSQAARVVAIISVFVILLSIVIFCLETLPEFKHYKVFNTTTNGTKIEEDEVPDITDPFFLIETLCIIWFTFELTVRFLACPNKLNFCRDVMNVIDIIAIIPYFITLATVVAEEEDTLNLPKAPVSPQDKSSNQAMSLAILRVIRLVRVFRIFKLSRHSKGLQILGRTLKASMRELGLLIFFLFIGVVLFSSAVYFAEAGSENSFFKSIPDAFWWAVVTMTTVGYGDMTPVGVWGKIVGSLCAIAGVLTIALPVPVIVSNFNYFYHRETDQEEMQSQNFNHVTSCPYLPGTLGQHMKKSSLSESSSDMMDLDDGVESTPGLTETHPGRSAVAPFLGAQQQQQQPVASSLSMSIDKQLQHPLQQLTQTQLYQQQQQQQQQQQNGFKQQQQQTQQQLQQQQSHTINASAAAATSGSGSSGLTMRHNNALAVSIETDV
Chain of UniProt O42275 (whole entry, looked up): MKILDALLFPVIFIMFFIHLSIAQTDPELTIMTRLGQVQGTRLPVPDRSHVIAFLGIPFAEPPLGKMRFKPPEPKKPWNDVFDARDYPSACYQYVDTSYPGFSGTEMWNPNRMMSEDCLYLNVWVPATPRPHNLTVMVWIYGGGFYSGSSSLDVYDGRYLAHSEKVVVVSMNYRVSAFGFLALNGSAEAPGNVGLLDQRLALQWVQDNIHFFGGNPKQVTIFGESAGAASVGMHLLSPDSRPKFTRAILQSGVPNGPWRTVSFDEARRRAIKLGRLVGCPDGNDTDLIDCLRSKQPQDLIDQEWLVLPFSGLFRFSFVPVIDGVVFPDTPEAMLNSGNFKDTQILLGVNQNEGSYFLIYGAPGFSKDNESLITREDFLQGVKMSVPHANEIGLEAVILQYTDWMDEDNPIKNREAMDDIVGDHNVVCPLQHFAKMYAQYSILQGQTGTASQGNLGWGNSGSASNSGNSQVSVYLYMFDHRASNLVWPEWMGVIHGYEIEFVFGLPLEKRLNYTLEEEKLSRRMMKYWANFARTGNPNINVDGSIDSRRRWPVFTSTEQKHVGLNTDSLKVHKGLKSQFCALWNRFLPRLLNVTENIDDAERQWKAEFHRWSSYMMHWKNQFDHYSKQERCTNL
Chain of UniProt O43148 (whole entry, looked up): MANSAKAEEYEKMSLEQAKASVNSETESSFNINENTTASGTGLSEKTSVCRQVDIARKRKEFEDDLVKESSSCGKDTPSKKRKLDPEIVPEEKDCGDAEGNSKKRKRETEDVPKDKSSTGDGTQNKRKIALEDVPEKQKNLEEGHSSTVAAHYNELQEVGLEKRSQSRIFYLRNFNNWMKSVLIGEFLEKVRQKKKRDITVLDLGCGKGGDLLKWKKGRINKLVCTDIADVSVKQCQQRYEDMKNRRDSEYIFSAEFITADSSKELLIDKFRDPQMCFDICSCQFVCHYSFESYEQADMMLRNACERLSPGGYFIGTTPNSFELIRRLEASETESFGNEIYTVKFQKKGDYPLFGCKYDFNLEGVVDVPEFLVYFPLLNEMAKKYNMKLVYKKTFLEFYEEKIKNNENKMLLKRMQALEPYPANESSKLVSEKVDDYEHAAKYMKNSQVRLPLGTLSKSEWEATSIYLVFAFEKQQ
Chain of UniProt Q9X6J6 (whole entry, unmodified, looked up): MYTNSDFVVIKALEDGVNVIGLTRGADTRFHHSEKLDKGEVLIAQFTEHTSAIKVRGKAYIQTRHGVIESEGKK

CCCCO
Km (ADH1 (Saccharomyces cerevisiae, UniProt P00330, H49Q); enzyme activity, substrate; pH 6): ~64 mM

N[C@@H](Cc1c[nH]c2ccccc12)C(=O)O
binding stoichiometry (Transcription attenuation protein MtrB, Δ71 truncation (mtrB, Geobacillus stearothermophilus, UniProt Q9X6J6); isothermal titration calorimetry; concentration not given, 25 °C, one-site model): 12 ± 0.02

O=C(O)Cc1c[nH]cn1
normalised MST signal (Sodium- and chloride-dependent taurine transporter (SLC6A6, Homo sapiens, UniProt P31641, Y138A); binding, microscale thermophoresis; 3.91 µM, room temperature, added: 50 nM labelled protein; higher = more binding): 0.00225

O=C(O)COP(=O)(O)O
Ki ratio (Triosephosphate isomerase (TPI1, Gallus gallus, UniProt P00940, G210A/S211G/Y208T); enzyme activity, competitive inhibitor, GPDH/NADH-coupled; pH 9.3, 25 °C, ionic strength 0.1 NaCl, added: glyceraldehyde 3-phosphate substrate; reference: mutant over wild type): 4.2

CC(C)C[C@@H]1NC(=O)[C@H](CC(=O)O)NC(=O)[C@@H]2CCCN2C(=O)[C@@H](NC(=S)Nc2ccc3c(c2)C(=O)OC32c3ccc(O)cc3Oc3cc(O)ccc32)CSCc2cccc(c2)CSC[C@@H](C(N)=O)NC1=O
log2 fold change (Kelch-like protein 20 (Homo sapiens, UniProt Q9Y2M5); binding, pull-down proteomics; PC-3; concentration not given; reference: compound beads over empty beads): 7.34 and 7.3

CSCC[C@H](N)C(=O)N[C@@H](C)C(=O)N[C@@H](C)C(=O)N[C@H](C(=O)N[C@@H](C)C(=O)NCC(=O)N[C@@H](CC(C)C)C(=O)N[C@@H](Cc1ccc(O)cc1)C(=O)NCC(=O)N[C@@H](CC(C)C)C(=O)NCC(=O)N[C@@H](CCC(=O)O)C(=O)N[C@@H](CC(=O)O)C(=O)N[C@@H](CCCNC(=N)N)C(=O)N[C@@H](CCC(N)=O)C(=O)N[C@@H](Cc1c[nH]cn1)C(=O)N[C@@H](CCCNC(=N)N)C(=O)N[C@@H](CCCCN)C(=O)N[C@@H](CCCCN)C(=O)N[C@@H](CCC(N)=O)C(N)=O)C(C)C
Hill coefficient (Sh, DEL6-46 (Drosophila melanogaster, UniProt P08510); ion current, blocker, inside-out patch clamp; +30 mV): 0.88

Nc1nc2c(ncn2[C@@H]2O[C@@H]3COP(=O)(O)O[C@H]4[C@@H](O)[C@H](n5cnc6c(=O)[nH]c(N)nc65)O[C@@H]4COP(=O)(O)O[C@H]3[C@H]2O)c(=O)[nH]1
association constant (Cell cycle histidine kinase CckA, R374A; cytoplasmic region (Caulobacter vibrioides, UniProt Q9X688, R374A); binding, ITC; added: ADP 5 mM): 39800 ± 7200 M⁻¹

Clc1ccc(Cl)c(-c2ccccc2Cl)c1
EC25 (Estrogen receptor (ESR1, Homo sapiens, UniProt P03372); reporter gene, agonist; T47D.luc; 24 h; reference: estradiol): 5 µM

CCNS(=O)(=O)C(F)(F)C(F)(F)C(F)(F)C(F)(F)C(F)(F)C(F)(F)C(F)(F)C(F)(F)F
binding fold change (FABP1; affinity selection mass spectrometry; 100 nM, added: pooled compounds; reference: other proteins): 34.1

O=C(NNC(=O)c1csnn1)c1ccc(Cl)cc1
remaining activity (Acetyl-CoA synthetase; 12.5 µM): 11.9%

COc1cc(N)c(Cl)cc1C(=O)NC1CN2CCC1CC2 (centres unmarked)
log2 fold change (Mas-related G-protein coupled receptor MRG (MAS1L, Homo sapiens, UniProt P35410); β-arrestin recruitment, TANGO luminescence, measured: MAS1L; concentration not given; reference: basal luminescence): 0.177

O=C(Nc1cnccc1Cl)N1CCN(Cc2ccc3c(c2)OC(F)(F)O3)CC1
inhibition (Vasopressin V2 receptor (AVPR2, Homo sapiens, UniProt P30518); binding; 10 µM, added: [3H][Arg8]vasopressin): 5%

CI
Km (HOL1 (Arabidopsis thaliana, UniProt Q0WP12); substrate, iodide release colorimetric; pH 7.5, sodium phosphate buffer, added: 1 mM SAH): 2.79 ± 0.3 mM

COc1cc(F)cc2c(N3CCN4c5ccccc5OC[C@H]4C3)c(C#N)nnc12
efficacy (Metabotropic glutamate receptor 8 (GRM8, Homo sapiens, UniProt O00222); positive allosteric modulator; added: glutamate; reference: glutamate maximum): 68%

O=C(CF)N[C@H]1[C@H]([C@H](O)[C@H](O)CO)O[C@@](OC[C@H]2O[C@@H](Oc3ccc([N+](=O)[O-])cc3)[C@H](O)[C@@H](O)[C@H]2O)(C(=O)O)C[C@@H]1O
Vmax (Sialidase-2 (Homo sapiens, UniProt Q9Y3R4); substrate; 10 min, pH 5.0, 37 °C): 0.00076 ± 5e-05 mM/s

CN[C@@H]1C[C@H]2O[C@@](C)([C@@H]1OC)n1c3ccccc3c3c4c(c5c6ccccc6n2c5c31)C(=O)NC4
normalized luminescence (Mitogen-activated protein kinase 14 (MAPK14, Homo sapiens, UniProt Q16539); kinase activity, Kinase-Glo; concentration not given): -0.0242

[2H]c1c([2H])c([C@]2([2H])CCCN2C(=O)C(C)(C)Oc2ccc3cn[nH]c3c2)c([2H])c([2H])c1C([2H])([2H])[2H]
remaining binding (1-phosphatidylinositol 3-phosphate 5-kinase (PIKFYVE, Homo sapiens, UniProt Q9Y2I7); KINOMEscan; 1 µM; reference: DMSO control): 86%

CCCCC(=O)Nc1ccc(-c2ccc3ncn(CCC)c(=O)c3c2)cn1
selectivity ratio (Phosphatidylinositol 5-phosphate 4-kinase type-2 gamma (PIP4K2C, Homo sapiens, UniProt Q8TBX8); binding; reference: PI5P4Kβ over PI5P4Kα): 3000 fold and > 3000 fold

CSC[C@H]1CN(Cc2c[nH]c3c(N)ncnc23)C[C@@H]1O
k4 (Aminodeoxyfutalosine nucleosidase (Helicobacter pylori, UniProt Q9ZMY2); radiolabel chase ultrafiltration; pH 7.4, inhibitor off-rate): 0.14 ± 0.02 min⁻¹

CCN(CC)C(=S)SSC(=S)N(CC)CC
IC50 (mRNA cap guanine-N(7) methyltransferase (RNMT, Homo sapiens, UniProt O43148); yeast growth; Saccharomyces cerevisiae; 30 °C, 1% DMSO, added: 5-FOA): 15.2 µM

CN(C(=O)n1cnc(-c2ccc[n+]([O-])c2)c1)C1CCCCC1
inhibition (C-X-C chemokine receptor type 4 (CXCR4, Homo sapiens, UniProt P61073); radioligand binding, inhibitor; 50 µM): -2%

Nc1nc2c(ncn2[C@@H]2O[C@H](COP(=O)(O)OP(=O)(O)OP(=O)(O)O)[C@@H](O)[C@H]2O)c(=O)[nH]1
binding enthalpy ΔH (GTP 3',8-cyclase (moaA, Staphylococcus aureus, UniProt P69848); isothermal titration calorimetry; concentration not given): -19.9 ± 2 kcal/mol

COc1ccc(F)cc1C(=O)NCc1ccc(-c2nn([C@@H](C)C(F)(F)F)c(N)c2C(N)=O)cc1
selectivity ratio (Tyrosine-protein kinase TXK (TXK, Homo sapiens, UniProt P42681); target engagement, NanoBRET; HEK293; reference: TXK over BTK): > 7600

CCN(CC)CCOc1ccc2c(c1)C(=O)c1cc(OCCN(CC)CC)ccc1-2
Hill slope (Acetylcholinesterase (ache, Electrophorus electricus, UniProt O42275); enzyme activity, inhibitor, Amplex Red): 0.62

CC[C@H](CO)Nc1nc(NCc2ccccc2)c2ncn(C(C)C)c2n1
binding score (Cyclin-dependent kinase 7 (CDK7, Homo sapiens, UniProt P50613); KINOMEscan competition binding; 10 µM, primary screen; direction not given): 0.75

Nc1ncnc2c1ncn2[C@@H]1O[C@H](COP(=O)(O)OP(=O)(O)OP(=O)(O)O)[C@@H](O)[C@H]1O
Km (axoneme-bound dynein; substrate; isolated axonemes): 0.041 ± 0.003 mM

COc1ccc2c3c([nH]c2c1)CCN(C)CC3.O=C(O)/C=C/C(=O)O
recovery time constant (Nicotinic acetylcholine receptor alpha9/alpha10 (Rattus norvegicus, UniProt P43144+Q9JLB5); ion current, inhibitor, two-electrode voltage clamp; Xenopus laevis oocytes; 1 µM, rat receptor, added: acetylcholine 10 µM): 9.5 s

CCCCCC(=O)N[C@H]1CCOC1=O
Emax (Regulatory protein SdiA (sdiA, Escherichia coli, UniProt P07026)): 95.3%

O=C(O)COc1ccc(Cl)cc1Cl
uptake (Solute carrier family 22 member 6 (SLC22A6, Homo sapiens, UniProt Q4U2R8); inhibitor, uptake; HEK293 transfected with SLC22A6; 200 µM, added: 4-aminohippuric acid): inhibited

COc1ccc(N2C(=O)N(c3c(C)cccc3Cl)Cc3cnc(Nc4ccc(C5CCN(C)CC5)cc4OC)nc32)nc1
inhibition (Serine/threonine-protein kinase 10 (STK10, Homo sapiens, UniProt O94804); kinase activity, inhibitor; 0.5 µM, kinase LOK): 44%

CCN(CC)S(=O)(=O)c1ccc(Cl)c(C(=O)Nc2ccc3nc(C)sc3c2)c1
remaining activity (Acetyl-CoA synthetase; 50 µM): 86.5% and 84.5%

O=C(NS(=O)(=O)/C=C/c1cccs1)c1ccc(F)cc1Br
binding fold change (FABP1; affinity selection mass spectrometry; 100 nM, added: pooled compounds; reference: other proteins): 48.3

O=C(Nc1cccnn1)N1CCC(=Cc2cccc(Oc3ccc(C(F)(F)F)cn3)c2)CC1
inhibition (Mu-type opioid receptor (OPRM1, Homo sapiens, UniProt P35372); radioligand binding, inhibitor; 10 µM, human, added: [3H]diprenorphine): 23%

O=C(Nc1ccc2c(c1)B(O)OC2)c1ccc(Oc2ccccc2)cc1
inhibition (Genome polyprotein, NS2B-NS3 protease (dengue virus type 2, UniProt P29990); enzyme activity, FRET; dengue virus serotype 2; 50 µM, added: substrate 50 µM): 14 ± 2%

C[C@H]1CN(c2n[nH]c3nc(N[C@H]4CC[C@H](NS(=O)(=O)CCC(F)(F)F)CC4)ncc23)CCO1
relative abundance (Crk-like protein (Homo sapiens, UniProt P46109); competitor, Kinobeads competition; human cell extract; 20 µM; reference: vehicle): 1.15

CN1CCN(c2cc(-c3ccncc3)c(-c3ccc4ccccc4c3)nn2)CC1
activation (Muscarinic acetylcholine receptor M5 (CHRM5, Homo sapiens, UniProt P08912); agonist, FLIPR; 12.5 µM): 3.6%

Nc1ccncc1
potentiation (Glutamate receptor 2 (Homo sapiens, UniProt P42262); ion current, positive allosteric modulator, automated patch clamp; HEK293; 30 µM): 84%

O=C(c1ccc(Cl)cc1)N1CCN2C(=O)N(OC(=O)N3CCOc4ccccc43)C(=O)C2C1 (centres unmarked)
mean protein ratio (Kynurenine formamidase (AFMID, Homo sapiens, UniProt Q63HM1); MS-based ABPP; SW-620 conditioned medium; 10 µM, 1 h, 37 °C; reference: treated over control): 1.27

For quick reference, copied from above:
CCCCCC(=O)N[C@H]1CCOC1=O
Emax (Regulatory protein SdiA (sdiA, Escherichia coli, UniProt P07026)): 95.3%

O=C(O)COc1ccc(Cl)cc1Cl
uptake (Solute carrier family 22 member 6 (SLC22A6, Homo sapiens, UniProt Q4U2R8); inhibitor, uptake; HEK293 transfected with SLC22A6; 200 µM, added: 4-aminohippuric acid): inhibited

COc1ccc(N2C(=O)N(c3c(C)cccc3Cl)Cc3cnc(Nc4ccc(C5CCN(C)CC5)cc4OC)nc32)nc1
inhibition (Serine/threonine-protein kinase 10 (STK10, Homo sapiens, UniProt O94804); kinase activity, inhibitor; 0.5 µM, kinase LOK): 44%

CCN(CC)S(=O)(=O)c1ccc(Cl)c(C(=O)Nc2ccc3nc(C)sc3c2)c1
remaining activity (Acetyl-CoA synthetase; 50 µM): 86.5% and 84.5%
